Experimental data of several laboratories.
Compare with care: the assays were run in different laboratories. ± gives the spread as reported.
Cell line: MOLT-4

`COc1ccc2c(c1)/C(=N\Nc1nnc3n1N=C(c1ccccc1)CS3)C(=O)N2` gave an inhibition of 51% (cell growth or viability, SRB; 10 µM).
With `Cc1sc2c(c1C)C(c1ccc(Cl)cc1)=N[C@@H](CC(=O)NCC(=O)N1CCC3(CCC(C(=O)N4CCN(C(=O)c5cc(Cc6n[nH]c(=O)c7ccccc67)ccc5F)CC4)CC3)CC1)c1nnc(C)n1-2` the EC50 was 4.6 nM (cell growth or viability, ATP luminescence; 72 h).
`CN(C)CC#Cc1ccc(OCCCc2sc(N3CCc4cccc(C(=O)Nc5nc6ccccc6s5)c4C3)nc2C(=O)O)c(F)c1` has an EC50 of 130 nM (cell growth or viability, ATP luminescence; 48 h).
For `CCC(=C(c1ccc(Cl)cc1)c1ccc(OCCCN(C)C)cc1)c1ccc(OC)cc1`, the GI50 was 1050 nM (cell growth or viability).
`CCCCCCCCC=CCCCCCCCC(=O)OCC1OC(n2ccc(N)nc2=O)C(F)(F)C1O` (centres unmarked) has an IC50 of 21 ± 2 nM (cell growth; with: dipyridamole 4 µg/mL).
`CC(=O)c1cccc(NC2C(N)C(NC(=O)N(C)C)(C(C)O)C(O)C2(O)COC(=O)c2c(C)cccc2O)c1` (centres unmarked) has a GI50 of 46 nM (cell growth or viability, SRB).
For `COc1ccc(C2=Nn3c(NN=C4C(=O)N(Cc5ccccc5)c5ccc(Cl)cc54)nnc3SC2)cc1`, the inhibition was 30% (cell growth or viability, SRB; 10 µM).
`CC1(C)CCC(c2ccc(Cl)cc2)=C(CN2CCN(c3ccc(C(=O)NS(=O)(=O)c4ccc(N[C@H](CCN(CCOCCOCCOCCNc5cccc6c5C(=O)N(C5CCC(=O)NC5=O)C6=O)C5CCCC5)CSc5ccccc5)c(S(=O)(=O)C(F)(F)F)c4)cc3)CC2)C1` (some centres unmarked) has an IC50 of 560 nM (cell growth or viability, MTS; 48 h).
The IC50 of `CC1(C)CCC(CN2CCN(c3ccc(C(=O)NS(=O)(=O)c4ccc(NCC5COCCO5)c([N+](=O)[O-])c4)c(N4CCCOc5nc6[nH]ccc6cc54)c3)CC2)=C(c2ccc(Cl)cc2)C1` (centres unmarked) is reported as 627 nM (cell growth or viability, ATP luminescence; 24 h).
`CC/C=C\C/C=C\C/C=C\C/C=C\C/C=C\C/C=C\CCC(=O)Nc1ccn(C2OC(CO)C(O)C2(F)F)c(=O)n1` (centres unmarked) gave a TGI of 13300 nM (NCI60 screen).
With `CC(=O)OC[C@H]1O[C@@H](Sc2sc(C(=O)c3ccc(C)cc3)c(N)c2-c2nc3ccccc3s2)[C@H](OC(C)=O)[C@@H](OC(C)=O)[C@H]1OC(C)=O` the growth was 70% (SRB; 10 µM, 48 h).

Repeated from above:
With `Cc1sc2c(c1C)C(c1ccc(Cl)cc1)=N[C@@H](CC(=O)NCC(=O)N1CCC3(CCC(C(=O)N4CCN(C(=O)c5cc(Cc6n[nH]c(=O)c7ccccc67)ccc5F)CC4)CC3)CC1)c1nnc(C)n1-2` the EC50 was 4.6 nM (cell growth or viability, ATP luminescence; 72 h).
